Assay results of several laboratories.
A part holds a random share of what one study measured.

Block 1 — technique: protein-binding microarray; molecule type: double-stranded DNA, one strand shown; medium: in vitro; tested at: 250 nM; setting: 60-bp whole probe; with: salmon DNA 0.4 mg/ml; reference: random background probes; reading: higher = stronger binding; measurement: log fluorescence; constant ends, left off below: GCCTAGCAC … GTCTTGATTCGCTTGACGCTGCTG
Target: Interferon regulatory factor 7, full length, phosphomimetic (IRF7, Homo sapiens, UniProt Q92985, residues 1-503, S101K/S471D/S472D/S475D/S476D/S477D/S483D/S484D/S487D)
Construct (chain): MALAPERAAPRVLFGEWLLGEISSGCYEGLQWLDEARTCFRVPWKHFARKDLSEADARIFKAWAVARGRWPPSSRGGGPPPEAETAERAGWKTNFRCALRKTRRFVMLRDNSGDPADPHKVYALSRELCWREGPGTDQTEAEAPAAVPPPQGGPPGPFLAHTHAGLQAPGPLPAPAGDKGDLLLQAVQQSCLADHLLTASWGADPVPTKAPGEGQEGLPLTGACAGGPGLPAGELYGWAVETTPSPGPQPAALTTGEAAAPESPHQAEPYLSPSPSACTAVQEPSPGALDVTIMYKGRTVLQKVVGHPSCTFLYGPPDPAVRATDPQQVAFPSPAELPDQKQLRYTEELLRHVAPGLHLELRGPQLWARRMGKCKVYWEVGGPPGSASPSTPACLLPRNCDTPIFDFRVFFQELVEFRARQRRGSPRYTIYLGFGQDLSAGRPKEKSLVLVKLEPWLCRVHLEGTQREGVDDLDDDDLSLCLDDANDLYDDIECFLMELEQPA
TTAGGTTGCGGTTTCGGTTAGTGCTAG: 9.02 z-score
GACGGTTTCAGGTATCGGGACGTGCTA: 2.04 z-score
TTAGGTTTCCACTATCGGTTAGTGCTA: 2.01 z-score
CAAAACATCATTGTCATATAGTGCTAG: -0.0666 z-score
GGCGGTTCCCTTTTCCTGACGTGCTAG: 2.65 z-score
GACGGACTGTGACTGGGGACGTGCTAG: -0.428 z-score
ATAGGTCTCGGACTGGGTTAGTGCTAG: 0.664 z-score
CACGATTTCAGTTTCGAGACGTGCTAG: 5.15 z-score
GACGAACTGGGGACTGGAGATGTGCTA: -0.63 z-score
TAAGGTATCCTTATCCTTTAGTGCTAG: 0.612 z-score
GACGGACTGGGACTGGGGACGTGCTAG: -0.3 z-score
GACGGTTTCGGGACAGGGGACGTGCTA: 4.76 z-score
TGAGATATCGGGTATCGATTAGTGCTA: 0.62 z-score
TAGCATGTAATTTGTTTGCAGTGCTAG: -0.297 z-score
TCAGTTTACATTTTCCAACTGTGCTAG: 1.86 z-score
TTAGGACTCGACTATCGGTTAGTGCTA: 0.446 z-score
TTAGGTATCGACTTTCGGTTCGTGCTA: 5.07 z-score
TCAGTGCTCATCTGTCATACTGTGCTA: -0.759 z-score
GACGGTTCCGGTTTCGGGAAGTGCTAG: 7.18 z-score
GACGATATCAGCATCGAGACGTGCTAG: -0.355 z-score
TTAGAATTCAGTTTCGATTAGTGCTAG: 9.05 z-score
GACGATTTCGGGACTGGAGAAGTGCTA: 0.295 z-score
TGGCACCTCTAGACTCTAAATGTGCTA: -0.825 z-score
TTAGGTATCGACGATCGGTTAGTGCTA: -0.336 z-score
TCAAGGTTCAAGTTTACCACTGTGCTA: 0.048 z-score

Block 2 — technique: protein binding microarray; molecule type: double-stranded DNA, one strand shown; medium: in vitro; tested at: not given; reference: not given; reading: higher = stronger binding; measurement: E-score
Target: Histone acetyltransferase KAT6A, winged helix 1, GST fusion (KAT6A, Homo sapiens, UniProt Q92794, residues 1-85)
Setting: 8-mer, flanks averaged, mean of 2 arrays, mostly near background
Residues (chain): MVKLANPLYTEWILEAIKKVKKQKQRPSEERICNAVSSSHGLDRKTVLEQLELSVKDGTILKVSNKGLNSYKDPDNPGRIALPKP
ATTTAAGG: -0.153
AGTAACGG: 0.154
AACTAGGC: -0.0538
CCTACGAG: -0.135
TCAACACA: -0.17
ATCCTGAC: -0.0611
ATCCGCAC: 0.257
AACCTATC: -0.0669
TCCAAACA: -0.0821
CAGTTTCA: -0.0415
ATTCGAGC: -0.143
TCAAATCA: -0.288
ACTAAGTG: -0.261
GTTATACA: -0.105
CGCCCTGA: 0.115
CCGACTAA: 0.0253
CCTGATGC: -0.0186
ACTAAGGC: 0.052
GTATCAAC: -0.0247
ATCGGATG: 0.07
TCTTCTCA: -0.111
ACGGCTTG: 0.344
CTGGTTTA: -0.0844
GTTGACCA: -0.185
CCCTACAG: -0.105

Block 3 — technique: RNA Bind-n-Seq; molecule type: RNA; medium: in vitro; tested at: 365 nM; reference: no-protein control; reading: higher = stronger binding; measurement: RBNS enrichment (R)
Target: RNA binding protein fox-1 homolog 2, RRM domain, GST-SBP tag (RBFOX2, Homo sapiens, UniProt O43251-10, residues 100-194)
Setting: natural RNA segment, single round, ends assumed
Construct (chain): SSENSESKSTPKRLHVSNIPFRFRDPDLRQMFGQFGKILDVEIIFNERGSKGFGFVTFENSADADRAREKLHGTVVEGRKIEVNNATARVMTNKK
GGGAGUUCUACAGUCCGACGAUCCCUAUCUCCCUCCCACAGUGGAGUCCCCAUUACCUUGUCUAAAACAAUUUUUUAAUGUGUUCUGUGGCCGUUUUACUGACAGUAACUGCCAUUUCGUGUCUGUGGUAACAUGGAAUUCUCGGGUGCCAA: 0.408
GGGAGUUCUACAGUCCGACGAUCCUGCCUCUCACAGGUACAGCUGUUUCUUGGAAAUCCUCCAACCAAAUAGCAGUUUUCCUAACUUGAUUAGCUUGAGCUGACAGACUGUUAGAAUACAGUUCUCUGGCCACUGGAAUUCUCGGGUGCCAA: 0.208
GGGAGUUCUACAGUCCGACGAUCCAUUUUUUUAAGUGUGCAGGGCAGCCUGGACACAGCUUAGCGUUCUACGUGUAUAGUUCUCCAUGCUCACUAACUCUCCUUCUCUGGGAAGCAGAUGUACAUACUACAUAUGGAAUUCUCGGGUGCCAA: 0.368
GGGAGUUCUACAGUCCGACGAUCCAUUUACAUUUUUAGGUUAUUACAGAAAAUUCUCUUAAUUUAUUAUAGUCAAGUGUAUUAUGUAAUCUCUAUUUAGAACAGUUUCCCAAAGGAAUGUGAUUGGAUUUACUUGGAAUUCUCGGGUGCCAA: 0.873
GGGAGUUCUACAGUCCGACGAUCUUAAAAGAGCUCUAAAUUUGCUUGUAUAUAAAGGCUUAAUAUGAGUUUUACUUGUUAGGGUCAAGGGUGUCUUGCCCAUUAACAGCUGUAGAUAGACAUUAAAGUAAAGCUGGAAUUCUCGGGUGCCAA: 0.983
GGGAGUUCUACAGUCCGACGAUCUUAAUUUCUUUAGGACAGUUGUAAAGGUCUCUCUCCUGAGGACAAUGACUUGGAAGAACUGGGGCACAGCCAGUCCCAGACACUGGUGGAGGCUGCAGUGACUUUUUUUGUGGAAUUCUCGGGUGCCAA: 0.285
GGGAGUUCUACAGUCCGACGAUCAUACACACACAAUAAUUUUUUAAACUCCAUAAAGUUAUUAACAUGUCAGCAGGCAGAGCAUUGCAGUUUAUUUAACUGAUGGCCAGGUUCUUGUUAGAACACCAAGCACAUGGAAUUCUCGGGUGCCAA: 0.962
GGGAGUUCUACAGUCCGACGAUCACCUUUCCAAAACAUCGCGAGAGCAUACAUAGACAAAAAUGAAAUAGAAAGCUCUUGCAUGCUUGAGUCCACCAUUGGGGGAAAUGACAGAAAACUGGACCUGAGGGCAUUGGAAUUCUCGGGUGCCAA: 1.57
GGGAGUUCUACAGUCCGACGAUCUUUGAGUUAUGUGGGGCCAGCAGAAGUCUCAAUCCUUAUAGGCUUGAUGGUGAGAGCAGCGGGAGGUUUGAGGUGUACUCAUUGCAGUCCACUUUGGUCUGUAAGUAGGAUGGAAUUCUCGGGUGCCAA: 0.771

Block 4 — technique: RNA Bind-n-Seq; molecule type: RNA; medium: in vitro; tested at: not given; reference: input RNA pool; reading: higher = stronger binding; measurement: bound/input enrichment
Target: RING finger protein unkempt homolog, zinc fingers 1-6, GST-SBP tag (UNK, Homo sapiens, UniProt Q9C0B0, residues 30-357)
Setting: RNA with constant flanks, human-mouse chimeric sites, ends assumed
Target sequence (chain): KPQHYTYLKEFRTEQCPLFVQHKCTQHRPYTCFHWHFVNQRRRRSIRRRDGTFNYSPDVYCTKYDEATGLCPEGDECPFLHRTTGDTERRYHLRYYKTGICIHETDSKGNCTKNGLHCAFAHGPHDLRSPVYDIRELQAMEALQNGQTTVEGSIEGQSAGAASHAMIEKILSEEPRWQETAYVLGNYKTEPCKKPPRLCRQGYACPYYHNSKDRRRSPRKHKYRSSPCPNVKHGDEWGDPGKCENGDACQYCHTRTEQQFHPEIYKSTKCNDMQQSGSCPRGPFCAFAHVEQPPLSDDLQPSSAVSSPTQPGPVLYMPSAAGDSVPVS
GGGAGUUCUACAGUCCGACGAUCCUGGCCUGGCCCUCCCCAGGGGCCUCCUUCUCUGCAUUCACUGCUUCUGCAUCAGAUACUUUCAGCUGCAACUCCCUACUGGGUGGGGCACCCAUUUCAGGCAGAAGUUGGUGCCCCCCUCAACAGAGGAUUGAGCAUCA: 0.226 ratio
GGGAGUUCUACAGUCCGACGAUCCGCAGAAGGUUAAAGGGUGAGAGUGGGAUGGAGGAUUGUGUCAUGGCUCUGGAGACACUGUUCAGUGUCCUGCUUUCUCUGUGCAGACUGAUGGCCCCUUACACGCCCUUUCUGACUGAGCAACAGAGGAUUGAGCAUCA: 0.0881 ratio
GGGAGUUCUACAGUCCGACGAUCGAAACUAUUCCUAAAGAGGAGAGAGCUGAAAAGGAAGCUCGGAGACCAUCUCUUGAGAAACAUAGAAAAGAAAAGCCUUUUAAAACCGGGAGAGGCAGAAUUUCCACUCCUGAAAGAAAACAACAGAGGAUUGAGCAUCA: 0.379 ratio
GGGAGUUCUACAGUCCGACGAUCUAUAUCACCAAUGUCCUACAAAAUCCUGACUUGGCUCUGAGAAUGGCUGUACGUAAUAACUUAGCUGGUGCUGAAGAACUCUUUGCCCGGAAAUUUAAUGCUCUCUUUGCCCAGGGAAACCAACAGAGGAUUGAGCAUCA: 0.347 ratio
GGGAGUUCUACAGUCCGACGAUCACCUCCCCCUCCCGCCUGCUUUUUGAAAAGAAAGAAAGAAAGUUUUUGGCGUUUCUUUUCCUUCCCCAUACAAAGUGAUUACAGUUUCCCCCGCAAGGGUCUAUCGAAGGGCUUGACGGACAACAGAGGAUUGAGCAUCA: 0.436 ratio
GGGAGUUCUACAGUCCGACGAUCGAAUCCUACUCAGGCGGAUUUUGCAACACCAAGCUCAAGUAGCAAUUAUCUUAGUCACAGUAGGGUAGCUUUAGGGCUCUGUGGCCAGGGUUUUAUUCACAUGCAGGUUUGGAAAAUGUACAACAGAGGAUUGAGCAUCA: 0.516 ratio
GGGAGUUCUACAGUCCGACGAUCCCCCAAUACCAUUUGCAAGAGUUGGAAUGCACUCUCUUUAAAGUUUUACAUGUAUACAUUUUAGGGCUGUAGAUUUAUUUUCCUGGUUUUGUUUUUCAUUGCUGACUUUUGAGCACAGAACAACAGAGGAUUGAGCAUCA: 1.36 ratio
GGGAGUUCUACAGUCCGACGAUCAACAGAUUGUCUUUAAGCAUUCCAAGCGAGAAUGCUGGGGUGAUCAUAAUUACCCACGUGCCUUCUGACUGAGCUUUUAAUUAAUUGCAUGUUACAUCUUUCCUUCACUCCAGAAUUGUUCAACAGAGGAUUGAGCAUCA: 0.263 ratio

Repeated from above (block 1):
TGAGATATCGGGTATCGATTAGTGCTA: 0.62 z-score
TAGCATGTAATTTGTTTGCAGTGCTAG: -0.297 z-score
TCAGTTTACATTTTCCAACTGTGCTAG: 1.86 z-score
TTAGGACTCGACTATCGGTTAGTGCTA: 0.446 z-score
TTAGGTATCGACTTTCGGTTCGTGCTA: 5.07 z-score
TCAGTGCTCATCTGTCATACTGTGCTA: -0.759 z-score
GACGGTTCCGGTTTCGGGAAGTGCTAG: 7.18 z-score
GACGATATCAGCATCGAGACGTGCTAG: -0.355 z-score
TTAGAATTCAGTTTCGATTAGTGCTAG: 9.05 z-score
GACGATTTCGGGACTGGAGAAGTGCTA: 0.295 z-score
TGGCACCTCTAGACTCTAAATGTGCTA: -0.825 z-score
